Published values gathered from unrelated publications.
Compare with care: the assays were run in different laboratories. “And” joins repeats or separate records; there may be more than shown. ± gives the spread as reported.

Compound	target	test	test system	conditions	scale	endpoint	result
CC(C)Oc1cc(Cl)ccc1CNc1cc(-c2ccccc2)nc2ncnn12	endogenous β-adrenergic receptors	cAMP level, cAMP GloSensor	mock-transfected cells	1 µM, together with: isoprenaline 30 nM	higher = more cAMP	cAMP luminescence	32400 a.u. and 22500 a.u. and 23200 a.u.
O=C(N/N=C/c1cc[n+](CC2CC2)c2ccccc12)c1cccc(C(=O)N/N=C/c2cc[n+](CC3CC3)c3ccccc23)c1	22CTA telomeric G4-DNA antiparallel	FRET melting	–	1 µM, K10 buffer, DNA 0.2 µM, together with: ds26 10 µM	–	ΔTm	11.1 ± 0.3 °C
c1ccc(-c2n[nH]cc2-c2ccnc3ccccc23)nc1	ENV7 (Candida albicans)	kinase binding, MIB/MS competition	Candida albicans lysate	10 µM	reference: DMSO	log2 fold change	0.04
C=CC(=O)N1[C@@H](c2ccc3c(c2)OCO3)c2[nH]c3ccccc3c2C[C@H]1C(=O)N1CCN(C)CC1	human cyclin E1 N112C-3xFLAG:CDK2	co-IP with TMT proteomics, refers to: HNRNPA1	–	concentration not given, P09651	reference: wild type DMSO	relative co-enrichment	200%
Nc1ncc(-c2cc(-c3cnn(CC(F)(F)F)c3)ncc2F)nc1C(=O)NC1CNCC(F)C1 (stereo not drawn)	CASK	KINOMEscan	–	1 µM	reference: DMSO control	remaining binding	90%
CC[n+]1cccc2cc(/C=N/NC(=O)c3cncc(C(=O)N/N=C/c4ccc5c(ccc[n+]5CC)c4)n3)ccc21	22CTA telomeric G4-DNA antiparallel	FRET melting	–	1 µM, K10 buffer, DNA 0.2 µM	–	ΔTm	14.4 ± 0.3 °C
C=CC(=O)Nc1cccc(Cn2ncc3cnc(Nc4cnn(CCOC)c4)nc32)c1	EPHB3 human	binding, KINOMEscan	–	100 nM	lower = stronger binding	percent of control	100%
O=C(N/N=C/c1cc[n+](CC2CC2)c2ccccc12)N/N=C/c1cc[n+](CC2CC2)c2ccccc12	22CTA telomeric G4-DNA antiparallel	FRET melting	–	1 µM, K10 buffer, DNA 0.2 µM	–	ΔTm	11.3 ± 1 °C
O=c1c(Oc2ccccc2)c(C(F)(F)F)oc2c(O)c(O)ccc12	ROC1-CUL1 E3 subcomplex	Cdc34-ubiquitin discharge	–	30 µM	reference: input	Cdc34b-ubiquitin remaining	9.8%

Excerpt of the above:
Compound	target	test	test system	conditions	scale	endpoint	result
O=c1c(Oc2ccccc2)c(C(F)(F)F)oc2c(O)c(O)ccc12	ROC1-CUL1 E3 subcomplex	Cdc34-ubiquitin discharge	–	30 µM	reference: input	Cdc34b-ubiquitin remaining	9.8%
